Experimental data from different studies.
FLT1: Vascular endothelial growth factor receptor 1 (FLT1, Homo sapiens, UniProt P17948)
Chain of UniProt P17948 (whole entry, looked up): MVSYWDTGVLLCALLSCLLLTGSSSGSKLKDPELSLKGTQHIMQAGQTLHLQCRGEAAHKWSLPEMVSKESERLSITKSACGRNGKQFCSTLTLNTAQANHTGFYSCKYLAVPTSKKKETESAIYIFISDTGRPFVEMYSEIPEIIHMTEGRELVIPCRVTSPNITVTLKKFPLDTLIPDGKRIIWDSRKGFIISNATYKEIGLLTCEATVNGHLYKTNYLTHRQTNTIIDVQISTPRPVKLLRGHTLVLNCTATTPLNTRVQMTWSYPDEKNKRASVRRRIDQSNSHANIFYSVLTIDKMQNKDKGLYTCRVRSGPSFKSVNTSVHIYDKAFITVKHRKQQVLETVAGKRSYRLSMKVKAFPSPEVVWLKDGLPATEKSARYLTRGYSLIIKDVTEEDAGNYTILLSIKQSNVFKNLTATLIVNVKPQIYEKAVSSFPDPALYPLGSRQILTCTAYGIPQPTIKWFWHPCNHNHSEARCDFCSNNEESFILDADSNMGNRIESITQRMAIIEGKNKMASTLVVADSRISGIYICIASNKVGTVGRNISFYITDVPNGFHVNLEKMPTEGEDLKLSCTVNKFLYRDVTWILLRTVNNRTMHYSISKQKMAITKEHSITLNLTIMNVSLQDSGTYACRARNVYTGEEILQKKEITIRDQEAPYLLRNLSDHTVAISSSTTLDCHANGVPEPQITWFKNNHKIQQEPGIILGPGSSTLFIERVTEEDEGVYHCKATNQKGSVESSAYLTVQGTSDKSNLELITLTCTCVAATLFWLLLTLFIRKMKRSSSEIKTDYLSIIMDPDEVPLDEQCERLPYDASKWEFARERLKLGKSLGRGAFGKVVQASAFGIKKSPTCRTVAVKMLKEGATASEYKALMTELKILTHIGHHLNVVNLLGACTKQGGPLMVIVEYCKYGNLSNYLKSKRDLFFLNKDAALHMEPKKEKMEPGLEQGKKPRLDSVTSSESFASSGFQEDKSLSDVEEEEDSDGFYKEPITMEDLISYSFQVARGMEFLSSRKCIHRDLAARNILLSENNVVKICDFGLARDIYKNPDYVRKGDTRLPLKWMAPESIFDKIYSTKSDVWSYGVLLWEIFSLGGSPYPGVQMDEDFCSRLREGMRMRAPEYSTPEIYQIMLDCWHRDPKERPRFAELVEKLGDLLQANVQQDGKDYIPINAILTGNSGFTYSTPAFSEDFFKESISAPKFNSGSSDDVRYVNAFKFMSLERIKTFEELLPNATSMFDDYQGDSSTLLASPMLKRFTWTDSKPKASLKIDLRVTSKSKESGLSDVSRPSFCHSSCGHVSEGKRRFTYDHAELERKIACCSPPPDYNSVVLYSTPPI
MTNR1A: Melatonin receptor type 1A (MTNR1A, Homo sapiens, UniProt P48039)
Chain of UniProt P48039 (whole entry, looked up): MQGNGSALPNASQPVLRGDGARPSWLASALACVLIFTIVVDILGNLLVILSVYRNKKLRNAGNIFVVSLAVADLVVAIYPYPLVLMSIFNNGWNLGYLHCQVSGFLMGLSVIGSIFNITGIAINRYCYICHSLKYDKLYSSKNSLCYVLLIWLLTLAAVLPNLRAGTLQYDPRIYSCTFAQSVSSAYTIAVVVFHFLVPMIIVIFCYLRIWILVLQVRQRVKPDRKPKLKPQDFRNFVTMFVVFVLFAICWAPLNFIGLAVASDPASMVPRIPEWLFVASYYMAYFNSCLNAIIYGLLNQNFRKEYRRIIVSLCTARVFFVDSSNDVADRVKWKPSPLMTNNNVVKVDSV
Chain of UniProt P14616 (whole entry, looked up): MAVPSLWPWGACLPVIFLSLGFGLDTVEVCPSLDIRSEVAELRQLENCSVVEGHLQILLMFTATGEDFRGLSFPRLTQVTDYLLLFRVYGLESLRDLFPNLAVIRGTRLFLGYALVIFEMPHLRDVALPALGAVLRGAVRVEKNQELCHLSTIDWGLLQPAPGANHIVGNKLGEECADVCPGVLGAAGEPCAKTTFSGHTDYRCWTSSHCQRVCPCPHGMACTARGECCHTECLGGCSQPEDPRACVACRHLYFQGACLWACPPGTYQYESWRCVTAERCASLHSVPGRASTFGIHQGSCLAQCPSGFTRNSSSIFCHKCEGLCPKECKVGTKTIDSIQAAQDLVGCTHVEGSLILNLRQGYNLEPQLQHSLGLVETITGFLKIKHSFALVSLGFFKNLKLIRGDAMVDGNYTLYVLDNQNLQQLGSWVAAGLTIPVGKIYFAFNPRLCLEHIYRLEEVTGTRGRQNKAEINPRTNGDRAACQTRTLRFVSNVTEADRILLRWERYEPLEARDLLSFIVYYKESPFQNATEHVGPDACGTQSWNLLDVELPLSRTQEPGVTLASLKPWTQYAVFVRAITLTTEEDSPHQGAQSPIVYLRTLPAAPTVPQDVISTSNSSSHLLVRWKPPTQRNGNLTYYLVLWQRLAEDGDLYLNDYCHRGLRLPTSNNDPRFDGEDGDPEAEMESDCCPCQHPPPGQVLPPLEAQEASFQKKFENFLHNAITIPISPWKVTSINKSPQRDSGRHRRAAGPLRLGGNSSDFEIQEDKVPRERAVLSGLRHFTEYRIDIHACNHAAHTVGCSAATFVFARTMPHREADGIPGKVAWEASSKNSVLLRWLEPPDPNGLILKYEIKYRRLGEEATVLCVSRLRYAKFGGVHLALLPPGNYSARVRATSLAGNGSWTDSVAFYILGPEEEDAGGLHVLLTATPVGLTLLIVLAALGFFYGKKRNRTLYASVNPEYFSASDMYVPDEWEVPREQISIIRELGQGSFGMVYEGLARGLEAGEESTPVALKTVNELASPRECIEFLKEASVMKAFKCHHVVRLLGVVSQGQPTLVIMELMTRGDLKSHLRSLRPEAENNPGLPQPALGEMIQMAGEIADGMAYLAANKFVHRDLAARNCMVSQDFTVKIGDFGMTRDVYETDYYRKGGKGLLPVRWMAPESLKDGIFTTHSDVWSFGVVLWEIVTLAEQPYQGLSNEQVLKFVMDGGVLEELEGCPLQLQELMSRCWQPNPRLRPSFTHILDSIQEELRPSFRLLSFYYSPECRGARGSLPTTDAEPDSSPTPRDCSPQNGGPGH
Chain of UniProt P54756 (whole entry, looked up): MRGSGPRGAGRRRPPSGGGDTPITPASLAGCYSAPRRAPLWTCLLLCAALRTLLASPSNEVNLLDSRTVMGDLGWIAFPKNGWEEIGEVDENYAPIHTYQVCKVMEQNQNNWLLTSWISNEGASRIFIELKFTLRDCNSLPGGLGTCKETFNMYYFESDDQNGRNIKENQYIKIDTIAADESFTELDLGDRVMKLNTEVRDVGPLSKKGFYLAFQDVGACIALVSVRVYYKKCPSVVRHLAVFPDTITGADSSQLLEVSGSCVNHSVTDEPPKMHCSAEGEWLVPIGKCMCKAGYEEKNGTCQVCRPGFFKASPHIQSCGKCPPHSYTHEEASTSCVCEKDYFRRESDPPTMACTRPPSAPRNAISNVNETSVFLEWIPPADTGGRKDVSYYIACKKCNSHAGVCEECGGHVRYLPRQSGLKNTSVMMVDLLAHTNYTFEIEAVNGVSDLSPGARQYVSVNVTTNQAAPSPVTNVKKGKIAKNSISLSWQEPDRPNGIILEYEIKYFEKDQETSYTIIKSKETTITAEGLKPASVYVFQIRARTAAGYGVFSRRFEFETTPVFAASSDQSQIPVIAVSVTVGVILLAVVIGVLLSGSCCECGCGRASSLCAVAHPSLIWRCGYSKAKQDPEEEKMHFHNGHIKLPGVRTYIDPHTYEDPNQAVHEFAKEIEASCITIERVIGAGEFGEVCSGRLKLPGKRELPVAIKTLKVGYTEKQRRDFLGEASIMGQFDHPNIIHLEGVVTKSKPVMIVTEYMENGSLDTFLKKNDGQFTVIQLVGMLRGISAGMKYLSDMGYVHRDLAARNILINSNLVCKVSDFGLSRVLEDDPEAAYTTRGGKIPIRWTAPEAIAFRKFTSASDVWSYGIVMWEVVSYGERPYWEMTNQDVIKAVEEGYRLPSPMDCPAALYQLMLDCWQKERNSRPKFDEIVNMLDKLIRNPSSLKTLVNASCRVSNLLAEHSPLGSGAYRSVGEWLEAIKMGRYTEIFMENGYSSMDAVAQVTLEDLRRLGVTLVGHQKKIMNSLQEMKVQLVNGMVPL
Chain of UniProt Q9BWU1 (whole entry, looked up): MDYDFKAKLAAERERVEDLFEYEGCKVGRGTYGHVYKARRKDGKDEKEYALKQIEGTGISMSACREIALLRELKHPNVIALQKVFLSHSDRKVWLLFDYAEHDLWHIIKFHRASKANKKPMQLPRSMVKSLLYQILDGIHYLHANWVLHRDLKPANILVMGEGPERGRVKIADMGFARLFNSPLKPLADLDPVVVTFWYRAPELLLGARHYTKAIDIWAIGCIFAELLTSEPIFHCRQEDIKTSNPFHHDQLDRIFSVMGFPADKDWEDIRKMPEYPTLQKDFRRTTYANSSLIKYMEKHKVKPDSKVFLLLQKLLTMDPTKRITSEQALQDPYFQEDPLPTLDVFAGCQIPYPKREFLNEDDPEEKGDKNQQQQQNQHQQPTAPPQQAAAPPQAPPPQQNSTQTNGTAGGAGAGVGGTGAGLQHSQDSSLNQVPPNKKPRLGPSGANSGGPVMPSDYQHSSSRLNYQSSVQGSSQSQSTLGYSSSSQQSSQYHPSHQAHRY
Chain of UniProt P49286 (whole entry, looked up): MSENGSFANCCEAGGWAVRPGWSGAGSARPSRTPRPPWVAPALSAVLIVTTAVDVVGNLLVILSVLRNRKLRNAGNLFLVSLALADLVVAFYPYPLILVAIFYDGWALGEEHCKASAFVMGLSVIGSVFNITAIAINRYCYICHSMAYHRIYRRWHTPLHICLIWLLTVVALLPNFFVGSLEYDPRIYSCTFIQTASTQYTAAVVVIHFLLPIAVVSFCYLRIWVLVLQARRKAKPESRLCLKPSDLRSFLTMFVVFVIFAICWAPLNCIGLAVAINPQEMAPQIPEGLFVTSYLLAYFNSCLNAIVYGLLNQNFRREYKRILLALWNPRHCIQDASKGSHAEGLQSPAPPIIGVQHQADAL

SMILES = Cc1cc([C@@H](C)Nc2ccccc2C(=O)O)c2nc(N3CCC(F)(F)CC3)c(C#N)c(=O)n2c1; target = Aurora kinase B (AURKB, Homo sapiens, UniProt Q96GD4); assay = binding, competition with immobilised ligand; conditions = 10 µM; measurement = remaining binding; value = 71%
SMILES = CC(=O)/C=C/C=C(C)/C=C/C1=C(C)CC(O)CC1(C)C (stereo in doubt); target = KAI2 (Arabidopsis thaliana, UniProt Q9SZU7); assay = thermal stability, DSF; conditions = 1 µM; measurement = ΔTm; value = -0.41 °C
SMILES = CC[C@H](C)[C@H](NC(=O)[C@H](CCC(N)=O)NC(=O)[C@@H](NC(=O)[C@H](CCSC)NC(=O)[C@H](CCCCN)NC(=O)[C@H](CO)NC(=O)[C@@H](NC(=O)[C@H](CCSC)NC(=O)[C@H](CC(C)C)NC(=O)[C@H](CC(N)=O)NC(=O)[C@@H](NC(=O)[C@@H](NC(=O)[C@H](CO)NC(=O)[C@H](CC(C)C)NC(=O)[C@H](C)NC(=O)[C@H](CCCNC(=N)N)NC(=O)[C@H](CCC(=O)O)NC(=O)[C@H](Cc1ccc(O)cc1)NC(=O)[C@H](Cc1ccccc1)NC(=O)[C@H](C)NC(=O)[C@H](CC(N)=O)NC(=O)[C@@H](N)CCCCN)[C@@H](C)CC)[C@@H](C)CC)[C@@H](C)O)C(C)C)C(=O)N[C@@H](CC(N)=O)C(=O)N[C@H](C(=O)O)C(C)C; target = MAPK3 (Homo sapiens, UniProt P27361); assay = enzyme activity, inhibitor, radiometric; conditions = 100 µM, 20 min; measurement = remaining activity; value = 85%
SMILES = COc1cc(I)c2[nH]cc(CCNC(C)=O)c2c1; target = MTNR1B (Homo sapiens, UniProt P49286); assay = cAMP, agonist, TR-FRET; system = CHO-K1; conditions = 20 min; measurement = Emax; value = 102%
SMILES = NC/C(=C\F)COc1cccc(Cn2c(=S)[nH]c(=O)c3[nH]cnc32)c1; target = AOC1 (Homo sapiens, UniProt P19801); assay = enzyme activity, inhibitor; conditions = 3 µM; measurement = inhibition; value = 9.78%
SMILES = C1=C/COCc2cc(ccc2OCCN2CCCC2)Nc2nccc(n2)-c2cccc(c2)COC/1; target = LTK (Homo sapiens, UniProt P29376); assay = binding; conditions = 0.1 µM; measurement = remaining binding; value = 100%
SMILES = CC1CCCN1c1nccc(-c2cnn3ncccc23)n1 (stereo not shown); target = CDK19 (Homo sapiens, UniProt Q9BWU1); assay = binding; conditions = 1 µM; measurement = remaining binding; value = 100%
SMILES = FC(F)(F)Oc1cccc(-c2cnc3ccc(-c4ccncc4)nn23)c1; target = FLT1; assay = enzyme activity, inhibitor, radiometric; conditions = 5 µM; measurement = activity vs control; value = 29%
SMILES = CCCCC(=O)Nc1ccc(-c2ccc3ncn(CCC)c(=O)c3c2)cn1; target = INSRR (Homo sapiens, UniProt P14616); assay = binding, competition with immobilised ligand; conditions = 0.5 µM; measurement = remaining binding; value = 90%
SMILES = CNc1ncc2c(/C=C/C(=O)N3CCC(OC)CC3)nn(Cc3cccc(C(F)(F)F)c3)c2n1; target = ARAF (Homo sapiens, UniProt P10398, Y301D/Y302D); assay = enzyme activity, inhibitor, radiometric; conditions = 1 µM; measurement = remaining activity; value = 95%
SMILES = Nc1ncnc2occ(-c3ccc(NC(=O)Nc4cc(C(F)(F)F)ccc4F)cc3)c12; target = PIK3CA (Homo sapiens, UniProt P42336, H1047L); assay = cell-free assay, inhibitor; conditions = 20 µM; measurement = remaining signal; value = 65%
SMILES = COc1ccc2cccc(CCNC(C)=O)c2c1; target = MTNR1A; assay = cAMP, agonist, TR-FRET; system = CHO-K1; conditions = 20 min; measurement = Emax; value = 91%
SMILES = COc1cc(CNC(=O)c2c[nH]c3ccccc23)cc(Br)c1OC; target = Replicase polyprotein 1ab, main protease (rep, Porcine epidemic diarrhea virus, UniProt P0C6Y4); assay = enzyme activity, inhibitor, FRET; conditions = 10 µM; measurement = inhibition; value = 124%
SMILES = C=CC(=O)N1CCC(COCC(=O)N2CCN(c3nc(-c4cnc(N)nc4C(F)F)nc(N4CCOC[C@@H]4C)n3)CC2)CC1; target = FLT1; assay = binding, competition with immobilised ligand; conditions = 1 µM; measurement = remaining binding; value = 96%
SMILES = O=C(NCCc1cccc2ccccc12)C1CCC1; target = MTNR1A; assay = β-arrestin recruitment, agonist; system = CHO-K1; conditions = 90 min; measurement = Emax; value = 20%
SMILES = COc1cc(-c2cncc3c2CN(C)Cc2cc(N4CCNCC4)ccc2-3)cc(OC)c1OC; target = EPHA5 (Homo sapiens, UniProt P54756); assay = enzyme activity, inhibitor; conditions = 1 µM; measurement = remaining activity; value = 107%

A few entries again:
SMILES = CCCCC(=O)Nc1ccc(-c2ccc3ncn(CCC)c(=O)c3c2)cn1; target = INSRR (Homo sapiens, UniProt P14616); assay = binding, competition with immobilised ligand; conditions = 0.5 µM; measurement = remaining binding; value = 90%
